Assay results from different studies.
Each line is one published result; not all experiments were run side by side. ± gives the spread as reported.
CNR2: Cannabinoid receptor 2 (CNR2, Homo sapiens, UniProt P34972)
UniProt P34972, sequence (whole entry, unmodified, looked up): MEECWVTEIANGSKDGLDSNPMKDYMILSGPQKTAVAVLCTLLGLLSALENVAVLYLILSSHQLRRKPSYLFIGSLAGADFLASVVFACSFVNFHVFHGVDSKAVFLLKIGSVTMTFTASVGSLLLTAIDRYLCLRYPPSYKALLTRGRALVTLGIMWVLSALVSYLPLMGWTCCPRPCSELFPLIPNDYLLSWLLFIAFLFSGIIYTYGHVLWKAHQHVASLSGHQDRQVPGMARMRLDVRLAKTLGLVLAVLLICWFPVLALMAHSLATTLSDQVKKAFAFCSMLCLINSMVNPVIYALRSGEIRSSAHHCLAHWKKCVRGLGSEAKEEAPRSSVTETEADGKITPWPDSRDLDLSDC

`O=C(Nc1cnccc1Cl)N1CCN(Cc2ccc3c(c2)OC(F)(F)O3)CC1` gave an inhibition of 7% (CNR2; binding; 50 µM, added: [3H]WIN-55,212-2).
For `C=C(C)[C@H]1Cc2c(ccc3c2O[C@@H]2COc4cc(OC)c(OC)cc4[C@@H]2C3=O)O1`, the maximum inhibition was 9.66% (human coronavirus OC43; virus-induced cell killing; MRC-5; screen).
With `CN1CCN(c2cc(-c3ccncc3)c(-c3ccc4ccccc4c3)nn2)CC1` the activation was -23.3% (CNR2; agonist, FLIPR; 12.5 µM).
`CCOC(=O)C(CCCOC)NC(=O)c1ccc(C2CC2)c(Cc2ccc(F)cc2)n1` (stereo not drawn) gave a Ki ratio of 6 (CNR2; radioligand binding; relative to: CB1 over CB2 (human)).
With `CNC(=O)[C@@H](NC(=O)c1cc(OCC2(C)COC2)c(C2CC2)cn1)C(C)(C)C` the selectivity ratio was > 383 (CNR2; cAMP, agonist; CHO cells; relative to: CB1 EC50 over CB2 EC50).
For `CCCCCCC(C)(C)c1ccc(C2CC(O)CCC2CCCO)c(O)c1` (stereo not drawn), the inhibition was 86% (CNR2; forskolin-stimulated adenylyl cyclase, agonist; CHO cells; 1 µM).
`CCCCCCC(C)(C)c1ccc([C@@H]2C[C@H](O)CC[C@H]2CCCO)c(O)c1` has an Emax of 75.6 ± 1.5% (CNR2 (Homo sapiens, UniProt P34972, L182I); cAMP inhibition, agonist, CAMYEL BRET biosensor; added: 10 µM forskolin; relative to: wild type receptor).
Under “Gi GTP turnover maximum”, `COC(=O)[C@@H](NC(=O)c1nn(Cc2ccc(F)cc2)c2ccccc12)C(C)(C)C` is recorded as 101% (CNR2; GTPase; relative to: compound).
The selectivity ratio of `CCC(CC)(NC(=O)c1ccc(N2CC(OC)C2)c(OC[C@H]2C[C@@H]2CO)n1)C(=O)NCCOCCOCCNC(=O)c1ccc2c(c1)C1(OC2=O)c2ccc(N(C)C)cc2[Si](C)(C)c2cc(N(C)C)ccc21` is reported as > 6 (CNR2; binding; relative to: CB1 Ki over CB2 Ki).
`CCOC(=O)C(CC)(CCCSCCOCCOCCOCCOCCNC(=O)OC(C)(C)C)NC(=O)c1ccc(C2CC2)c(Cc2ccc(F)cc2)n1` (stereo not drawn) gave a Ki ratio of 5 (CNR2; radioligand binding; relative to: CB1 over CB2 (human)).
`O=c1ccc2ccccc2o1` has an inhibition of -3.14% (CNR2; agonist radioligand binding; 10 µM, SafetyScreen44).
With `NC(=O)[C@@H]1CC(F)(F)CN1C(=O)c1ccc(N2CC(F)(F)C2)c(OCC2CC2)n1` the selectivity ratio was 102 (CNR2; binding, [3H]-CP55940 displacement; relative to: CB1 Ki over CB2 Ki).
`CN(C(=O)n1cnc(-c2ccc[n+]([O-])c2)c1)C1CCCCC1` has an inhibition of 14% (CNR2; radioligand binding; 10 µM, added: [3H]WIN-55,212-2).
`CC/C(=C(\c1ccc(O)cc1)c1ccc(OCCN(C)C)cc1)c1ccccc1` — result for “inverse agonist efficacy”: 193% (CNR2; item: cAMP; CHO-hCB2 cells).
The Ki ratio of `CCOC(=O)[C@](CC)(CCC[S+]([O-])CCOCCOCCNC(=O)OC(C)(C)C)NC(=O)c1ccc(C2CC2)c(Cc2ccc(F)cc2)n1` (stereo partly drawn) is reported as 11 (CNR2; radioligand binding; relative to: CB1 over CB2 (human)).
For `O=C(Nc1cccnn1)N1CCC(=Cc2cccc(Oc3ccc(C(F)(F)F)cn3)c2)CC1`, the inhibition was 37% (CNR2; binding; 10 µM, added: [3H]WIN-55,212-2).
`C=CCN1CC[C@]23c4c5ccc(O)c4O[C@H]2C(=O)CC[C@]3(O)[C@H]1C5` has an inhibition of 13.1% (CNR2; concentration not given).
For `C=CCC(CC)(NC(=O)c1ccc(C2CC2)c(Cc2ccc(F)cc2)n1)C(=O)OCC` (stereo not drawn), the Ki ratio was 3 (CNR2; radioligand binding; relative to: CB1 over CB2 (human)).
With `Cc1nc([C@@](C)(CC2CC2)NC(=O)c2cc(OCC(F)(F)F)c(C3CC3)cn2)no1` the selectivity ratio was 44 (CNR2; binding, [3H]-CP55940 displacement; relative to: CB1 Ki over CB2 Ki).
The Ki ratio of `CCOC(=O)[C@H](CSC)NC(=O)c1ccc(C2CC2)c(Cc2ccc(F)cc2)n1` is reported as 6 (CNR2; radioligand binding; relative to: CB1 over CB2 (human)).
`COc1cccc2c1C(=O)c1c(O)c3c(c(O)c1C2=O)C[C@@](O)(C(=O)CO)C[C@@H]3O[C@H]1C[C@H](N)[C@@H](O)[C@H](C)O1` has a maximum inhibition of 0% (human coronavirus OC43; virus-induced cell killing; MRC-5; maximum over 10 doses).
